Experimental data from different studies.
Each numbered part is a random draw from the data of one study; scales do not carry over between parts.

Block 1
Target: Prothrombin, mature alpha-thrombin (F2, Homo sapiens, UniProt P00734)
Technique: aptamer microarray, sandwich
Form: DNA with 2'F-ANA
Sample: in vitro
Concentration: 200 nM
Notes: whole 15-mer aptamer, many near background
Together with: Cy3 exosite-II aptamer, 400 nM
Direction: higher = stronger binding
Measurement: mean fluorescence intensity
GGTTGGTGTGGTTGG (2'F-ANA at 5 7 8 10 14 15): 47.6 a.u.
GGTTGGTGTGGTTGG (2'F-ANA at 2 3 7 8 9 15): 775 a.u.
GGTTGGTGTGGTTGG (2'F-ANA at 5 6 8 9 10 11 12 14 15): 49 a.u.

Block 2
Target: Histone acetyltransferase KAT6A, both winged helices, GST fusion (KAT6A, Homo sapiens, UniProt Q92794, residues 1-181)
Technique: protein binding microarray
Form: double-stranded DNA, one strand shown
Sample: in vitro
Concentration: not given
Notes: 8-mer, flanks averaged, mean of 2 arrays, mostly near background
Relative to: not given
Direction: higher = stronger binding
Measurement: E-score
Target sequence (chain): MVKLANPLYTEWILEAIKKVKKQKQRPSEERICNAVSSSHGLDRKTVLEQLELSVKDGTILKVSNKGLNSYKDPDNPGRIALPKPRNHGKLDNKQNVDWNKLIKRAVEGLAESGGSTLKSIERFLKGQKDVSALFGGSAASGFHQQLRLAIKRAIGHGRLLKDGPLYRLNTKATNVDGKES
AGAAACTA: -0.148
ATCGCTAG: 0.00835
TAAAAGTA: -0.0479
GCACAAGA: -0.0404

Block 3
Target: PABPC1L2, full length, GST fusion (mouse, UniProt A0ABA7IW68)
Technique: RNAcompete
Form: RNA
Sample: in vitro
Concentration: 20 nM
Notes: 7-mer, probes averaged, single round
Relative to: mean of 7-mers
Direction: higher = stronger binding
Measurement: 7-mer Z-score
Target sequence (chain): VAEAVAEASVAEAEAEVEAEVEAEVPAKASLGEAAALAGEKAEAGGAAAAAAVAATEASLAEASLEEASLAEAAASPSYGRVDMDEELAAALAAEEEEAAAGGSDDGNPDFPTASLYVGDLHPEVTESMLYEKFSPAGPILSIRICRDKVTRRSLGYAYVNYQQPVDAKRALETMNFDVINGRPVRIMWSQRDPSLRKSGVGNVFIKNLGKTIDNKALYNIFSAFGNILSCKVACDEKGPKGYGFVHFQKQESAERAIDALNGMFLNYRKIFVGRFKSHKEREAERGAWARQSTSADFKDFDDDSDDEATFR
GGCUUAA: 0.000733
CAUUAAC: -0.0554
CCAUUGG: -0.186

Other studies, line by line
PhoQ, residues 284 288 289 292 302 303 SIHLQL — fold induction (PhoP, residues 12 14 15 18 19 STHWV (Escherichia coli, UniProt P23836); Sort-seq, refers to: YFP reporter; E. coli; PhoQ-PhoP variant library, together with: 10 µM Mg2+; relative to: high Mg2+ state, higher = stronger signaling): 14.6
